Experimental data pooled from the literature.
A part holds a random share of what one study measured. Positions count from the first letter of the parent shown.

Sample 1 — technique: RNA Bind-n-Seq; form: RNA; sample: in vitro; tested at: 365 nM; reference: no-protein control; direction: higher = stronger binding
Target: RNA binding protein fox-1 homolog 2, RRM domain, GST-SBP tag (RBFOX2, Homo sapiens, UniProt O43251-10, residues 100-194)
Setting: natural RNA segment, single round, ends assumed
Shared flanks, not repeated: GGGAGUUCUACAGUCCGACGAUC … UGGAAUUCUCGGGUGCCAA
Residues (chain): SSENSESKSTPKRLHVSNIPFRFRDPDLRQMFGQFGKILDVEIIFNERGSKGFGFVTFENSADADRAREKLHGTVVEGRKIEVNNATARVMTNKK
Oligonucleotide | RBNS enrichment (R)
GUAAGAGUUCCCACUGGCCUUGCUCUGAGGCCAAGAGCUUUUUCAAAUGCAGGCUGCAGGAUUAAGCCAGCUCUUAUGCAACUGACUGUCCUUAAUGAAGAACUCAUAAA | 0.274
AGGGGAACAAAGAAUACUUUGGGGGGAAAAAAGUUUUAAAAAAGAAAUUGAAAAUUGCCUUGCAGAUAUUUAGGUACAAUGGAGUUUUCUUUUCCCAAACGGGAAGAACA | 1.33
UGGAUUUAAACUGCUUAAAAAAGAAAAUGUGACCGGCUCUCCUGCUUGGGUCUCAGGGGAGAUAUGCUUAAGGCCAGAGCUCUUCCUCAGUAUUUGAUUUUUCCAGUGUU | 4.21
ACCCAGGAACCAAAUAUUCCAUUUUGGCUUCUGCUAGAGCAGUCAUGGUUCCUCUCCUAAAAGCCAUGGGCAGCAGUUUCCGAGGGCCUGCAUGAUCCACCUGCUGCACG | 11.8
UAAAUGCUAAAUUUUUGUCUUUUGCCUUUUUAAAGGAAUUGUUACCAUUGGAAUUGAGGGUAUGUACAGAGAAGUUGGUGUCAAUGCCAUUUAAUAAGUCAUAUUUUUUC | 0.59
UGUCUCUAGGUCGCUGAGAGAGGUGCUUUUCUUCAUAAAACCUUUGGGGUUUGGAUUUCCCCAGGAAGAUGGAGAAUGGAAUACUCACUCUUGGGUCUAAUCUUUCCCCU | 0.353
UUUCUCGAUUAGGCGUAUGGGUUUUGAAAAAGAGAUUUUUCAGAAGAUUGUCAGCUUCAGUAUUCAUGUUCCAUCGUGUCAUCUGGGUCUGUUAGUGUAGUGACCCUCAG | 2.11
UCCUGAGAGAUUUUCCAUUCUUGUCACCAUUCACUUGCAUUGUAAAGAUUUUCUUUGUCUGUUGUUGGCAUAGAUUCUUUUGUACAUAUUUAUUUAUUUGUGUUUAUAUA | 0.924

Sample 2 — technique: protein binding microarray; form: double-stranded DNA, one strand shown; sample: in vitro; tested at: not given; reference: not given; direction: higher = stronger binding
Target: Histone acetyltransferase KAT6A, winged helix 2, GST fusion (KAT6A, Homo sapiens, UniProt Q92794, residues 85-181)
Setting: 8-mer, flanks averaged, mean of 2 arrays, mostly near background
Target sequence (chain): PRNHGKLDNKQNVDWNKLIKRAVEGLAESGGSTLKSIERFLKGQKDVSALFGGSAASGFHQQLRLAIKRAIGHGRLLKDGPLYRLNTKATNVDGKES
Oligonucleotide | E-score
ATAGGACC | -0.193
AAGTCGCG | 0.123
GTGTGGAA | 0.0267
ATGAAGAC | 0.226
AGACTATG | -0.0986
CTGTGACC | -0.0533
AGTTCCCA | 0.175
ACGATCAA | -0.109
CAGGTAAG | -0.236
GGCACGTA | -0.116
AAATTCGT | 0.0637
CGTATACC | -0.134
AGTAGAAG | -0.105
GTGGCTCA | -0.184
GCTATGCC | -0.011
CATATTTC | -0.136
CAGAAGAA | -0.0315
GTACGGTA | -0.183
CACGCGAA | -0.0197
AACAAAAT | -0.0854
GATATGAA | -0.0422
AACCATTC | -0.067
ATTATCGC | 0.0986
CGTGGGAA | -0.0361
TGATCCAA | -0.0509

Sample 3 — technique: aptamer microarray, sandwich; form: DNA with 2'F-ANA; sample: in vitro; tested at: 200 nM; together with: Cy3 exosite-II aptamer, 400 nM; direction: higher = stronger binding; oligonucleotide: GGTTGGTGTGGTTGG
Target: Prothrombin, mature alpha-thrombin (F2, Homo sapiens, UniProt P00734)
Setting: whole 15-mer aptamer, many near background
Modification | mean fluorescence intensity
2'F-ANA at 3 4 8 11 13 14 | 323 a.u.
2'F-ANA at 1 2 4 6 14 | 48.4 a.u.
2'F-ANA at 1 2 3 6 7 8 9 11 | 431 a.u.
2'F-ANA at 5 7 8 10 12 13 14 15 | 45.9 a.u.
2'F-ANA at 1 2 5 8 9 10 12 14 | 47.3 a.u.
2'F-ANA at 1 7 9 10 12 15 | 73.7 a.u.
2'F-ANA at 1 3 4 6 8 10 13 14 15 | 88.4 a.u.
2'F-ANA at 2 3 8 10 12 13 14 15 | 289 a.u.
2'F-ANA at 1 4 7 9 11 14 | 48 a.u.
2'F-ANA at 3 6 8 10 11 13 14 | 339 a.u.
2'F-ANA at 4 5 6 7 10 13 14 | 45.7 a.u.
2'F-ANA at 1 3 7 8 9 10 12 14 | 67.1 a.u.
2'F-ANA at 1 2 3 4 6 7 8 10 13 15 | 83.9 a.u.
2'F-ANA at 1 3 6 7 10 11 12 13 15 | 95.8 a.u.
2'F-ANA at 1 2 3 4 6 8 10 11 12 15 | 67.9 a.u.
2'F-ANA at 1 3 5 7 11 13 | 50.5 a.u.
2'F-ANA at 1 3 5 6 7 8 10 11 12 14 | 56.4 a.u.
2'F-ANA at 2 6 10 11 13 15 | 103 a.u.
2'F-ANA at 1 2 5 6 10 12 15 | 53.9 a.u.
2'F-ANA at 3 6 9 10 12 13 14 15 | 351 a.u.
2'F-ANA at 3 5 9 13 15 | 94 a.u.
2'F-ANA at 2 3 5 10 13 14 | 47 a.u.
2'F-ANA at 6 7 9 10 12 13 15 | 170 a.u.
2'F-ANA at 1 2 3 4 5 6 7 13 | 47.9 a.u.

Sample 4 — target: CCNF, cyclin fold, Cln2 fusion (human); technique: yeast growth competition, sequencing; sample: yeast; setting: strong parent motif; reference: not given; direction: higher = stronger binding
Starting sequence: E2F1 docking peptide (human); PPVKRRLDFETDH
Variant | normalised enrichment score
T11V | 7.22
F9V | 3.77
R6M | 7.2
P2F | 7.83
D12I | 8.1
P2G | 8.27
V3L | 5.91
K4E | 5.46
E10S | 7.7
D12W | 8.32
V3D | 1.03
R6F | 6.75
T11F | 7.54
P2R | 8.12
R6Q | 6.95
K4H | 7.49
E10A | 7.62
T11Q | 7.13
L7H | 0.0381
L7R | 0.205
T11K | 7.29
D8S | 6.2
R5M | 1.5
T11R | 7.54
R6Y | 6.71
